Measured values gathered from unrelated publications.
A part holds a random share of what one study measured. Changes are numbered by the printed parent chain.

Series 1
Target: Eukaryotic initiation factor 4A-I (EIF4A1, Homo sapiens, UniProt P60842, residues 1-406, full length assumed)
Chain of UniProt P60842 (whole entry, looked up): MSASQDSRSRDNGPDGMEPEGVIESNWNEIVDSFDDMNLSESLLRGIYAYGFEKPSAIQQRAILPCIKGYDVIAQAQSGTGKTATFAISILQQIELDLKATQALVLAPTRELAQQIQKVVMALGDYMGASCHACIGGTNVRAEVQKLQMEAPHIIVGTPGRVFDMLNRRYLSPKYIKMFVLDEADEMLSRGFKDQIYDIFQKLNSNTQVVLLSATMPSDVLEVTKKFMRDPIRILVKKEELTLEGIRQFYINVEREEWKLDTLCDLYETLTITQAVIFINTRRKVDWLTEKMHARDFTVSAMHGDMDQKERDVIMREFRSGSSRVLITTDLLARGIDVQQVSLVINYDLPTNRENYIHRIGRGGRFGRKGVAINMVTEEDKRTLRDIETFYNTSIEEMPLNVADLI
Technique: RNA Bind-n-Seq
Form: RNA
Medium: in vitro
Concentration: 15 pmol
Notes: 4-mer, random 30-nt RNA, single round
With: 3 µM DMDA-PatA, 2 mM AMP-PNP
Relative to: input library
Direction: higher = stronger binding
Endpoint: 4-mer enrichment
GAAA: 0.921 fold
CCUA: 0.829 fold
AUAA: 0.791 fold
AAUA: 0.909 fold
GCUA: 1.42 fold
UGCG: 1.23 fold
UUCG: 1.27 fold
GCCA: 0.55 fold

Series 2
Target: TAR DNA-binding protein 43, full length, His tag (TARDBP, Homo sapiens, UniProt Q13148, residues 1-414)
Technique: RNA Bind-n-Seq
Form: RNA
Medium: in vitro
Concentration: 20 nM
Notes: 6-mer, flanks averaged, single round
With: 150 mM KCl
Relative to: input library
Direction: higher = stronger binding
Endpoint: 6-mer enrichment (R)
GGGCUC: 1.86
GAAGUG: 1.61
GGGCGC: 3.73
GCCAAU: 0.725
AACGUG: 0.875
UGGAUC: 0.743
ACCAAC: 0.653
CACACA: 0.674

Series 3
Target: RNA binding protein fox-1 homolog 2, RRM domain, GST-SBP tag (RBFOX2, Homo sapiens, UniProt O43251-10, residues 100-194)
Technique: RNA Bind-n-Seq
Form: RNA
Medium: in vitro
Concentration: 365 nM
Notes: natural RNA segment, single round, ends assumed
Relative to: no-protein control
Direction: higher = stronger binding
Endpoint: RBNS enrichment (R)
Residues (chain): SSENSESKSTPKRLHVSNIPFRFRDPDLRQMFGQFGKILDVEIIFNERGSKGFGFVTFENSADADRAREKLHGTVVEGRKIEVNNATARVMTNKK
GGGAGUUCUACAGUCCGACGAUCUCUCCCCCAUCCCCUCCCGGCUUAUAGGCCCCACAGGUGCUAUUUGUUGUGCUGGCCCAGGCGUGGGGCUACCAAGCAAAGGCUUGGCAUAUACCAAAGGCCAGCUGCAUUGGAAUUCUCGGGUGCCAA: 2.96
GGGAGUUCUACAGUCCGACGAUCCCCGCUCUGCCGCCGCCCGCUGGGGACCGGUUCCCACAAGCCUGCCUCGCCUUGUGUUACGAUAUUUCGUUUGGUCUUAGGUCUUCCUGUGGCUCCCUCUCUCCUGGACUUGGAAUUCUCGGGUGCCAA: 0.767
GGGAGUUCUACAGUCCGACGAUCCGUAUAACCAUCCUUCGGCCAGCCCCGGUAGGCAGGGGAUGAGUCAUUCCAGGUCGGCAUCCUCCGGCAAUGGCAGCUGACCCUAUAUGGCUCUGUGUGGAGUGCAGUAGUGGAAUUCUCGGGUGCCAA: 0.206
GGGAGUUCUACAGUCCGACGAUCUAUUUAUUGCAUAUUUAUUGUUUGGAUGUCACCAUCAGAGACGAAGGGAAGGGUAGCCAGGGAGGGAGUCCAGCCCAGCUGCCUGCAGGAAGAUCUGGCUCAGUCUACUAUGGAAUUCUCGGGUGCCAA: 0.332
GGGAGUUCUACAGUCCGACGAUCAUAUCUUGUAGUUUUCAGAAAAGCCUUUGGAAAUCUGGAUCAGAAAAUAGAUACCAUGGUUUGUGCAAUUAUGUAGUAAAAAAGGCAAAUCUUUUCACCUCUGGCUAUUCUGGAAUUCUCGGGUGCCAA: 0.625
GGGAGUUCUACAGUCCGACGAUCAUAAUAUCUGACUAUUGUUUUCUAUUAAAUAUCAGAACCUUACUGGGUCUUUACACCUCUGUGAAGUAGAGAAUUUUGGCAAUGAACUGUUUAACUUGGCCAAUCUAGGCUGGAAUUCUCGGGUGCCAA: 0.454
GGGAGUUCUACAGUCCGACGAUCCUUAUGUUUGCUUAAAUAGCAAAAAUCAACACUAAAUGUCUAAAGGAAUUUGUAAUUUGAGACCUAGUAUUUUUACACAAUAAACCUGCUAAAACAGGCUUUAAAAGACAUGGAAUUCUCGGGUGCCAA: 0.59
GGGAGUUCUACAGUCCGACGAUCAGAUGGCUGGACAGUGGGAGAGAGCACGUUGUGAAGCAUCCCAGCCUCGUGUUGAGGUUCCAGACUUAGAAACAGACCCCUCUGUACAGGGGGAUUGUGGUGAGUGAGAAUGGAAUUCUCGGGUGCCAA: 0.448

Mixed results
Parent: viral docking peptide; KGVKRKLFAEDSS
KGPKRKLFAEDSS [V3P]
normalised enrichment score (CCNE1, cyclin fold, Cln2 fusion (human); yeast growth competition, sequencing; yeast; strong parent motif; relative to: not given, higher = stronger binding): 7.01

A few entries again (series 3):
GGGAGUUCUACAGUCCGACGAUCAGAUGGCUGGACAGUGGGAGAGAGCACGUUGUGAAGCAUCCCAGCCUCGUGUUGAGGUUCCAGACUUAGAAACAGACCCCUCUGUACAGGGGGAUUGUGGUGAGUGAGAAUGGAAUUCUCGGGUGCCAA: 0.448
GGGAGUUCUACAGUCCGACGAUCAUAUCUUGUAGUUUUCAGAAAAGCCUUUGGAAAUCUGGAUCAGAAAAUAGAUACCAUGGUUUGUGCAAUUAUGUAGUAAAAAAGGCAAAUCUUUUCACCUCUGGCUAUUCUGGAAUUCUCGGGUGCCAA: 0.625
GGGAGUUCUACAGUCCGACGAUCCCCGCUCUGCCGCCGCCCGCUGGGGACCGGUUCCCACAAGCCUGCCUCGCCUUGUGUUACGAUAUUUCGUUUGGUCUUAGGUCUUCCUGUGGCUCCCUCUCUCCUGGACUUGGAAUUCUCGGGUGCCAA: 0.767
